Measured values collected from several papers.
Each line is one published result; not all experiments were run side by side.

| SMILES | test system | conditions | AUC(0-inf) |
| --- | --- | --- | --- |
| Cc1cc(NC(=O)[C@H](O)c2cc(F)cc(F)c2)ccc1-c1cnc(N)c(C(=O)NC(C)C)c1 | female nude mouse, plasma | oral, 50 mg/kg, single dose | 39400 ng·h/mL |
| Nc1ccc(-c2cc(Cl)c(Cl)c3[nH]c4c(c23)CN(C(=O)CO)CC4)cn1 | C57BL/6 mouse, blood | intravenous, 0.5 mg/kg | 0.602 µM·h |
| Cc1cc(NCC(=O)C(C)C)c2nc(N3CCOC[C@H]3C)cc(=O)n2c1 | C57BL/6 mouse, plasma | intraperitoneal, 10 mg/kg, single dose | 3040 ng·h/mL |
| COc1cnc2cccc(N3CCc4c(cc(Cn5ccnc5)cc4-c4cn(C)nc4C(F)(F)F)C3=O)c2c1 | male CD-1 mouse, plasma | oral, 50 mg/kg | 50500 ng·h/mL |
| N#CCCC1CCN(C(=S)c2ccc(-c3cc(Cl)ccc3Cl)o2)CC1 | male BALB/c mouse, plasma | intravenous, 5 mg/kg | 1250 ng·h/mL |
| COC(=O)C1=CNC=C(C(=O)OC)C1c1ccc(F)c(C(F)(F)F)c1 | male C57BL/6 mouse, plasma | intravenous, 2 mg/kg | 1350 ng·h/mL |
| CC[C@H](C)[C@H](NC(=O)[C@H](Cc1ccccc1)NC(=O)[C@H](CCC(=O)O)NC(=O)[C@H](CCCCN)NC(=O)[C@H](C)NC(=O)[C@H](C)NC(=O)[C@H](CCC(N)=O)NC(=O)CNC(=O)[C@H](CCC(=O)O)NC(=O)[C@H](CC(C)C)NC(=O)[C@H](Cc1ccc(O)cc1)NC(=O)[C@H](CO)NC(=O)[C@H](CO)NC(=O)[C@@H](NC(=O)[C@H](CC(=O)O)NC(=O)[C@H](CO)NC(=O)[C@@H](NC(=O)[C@H](Cc1ccccc1)NC(=O)[C@@H](NC(=O)CNC(=O)[C@H](CCC(=O)O)NC(=O)[C@H](C)NC(=O)[C@@H](N)Cc1c[nH]cn1)[C@@H](C)O)[C@@H](C)O)C(C)C)C(=O)N[C@@H](C)C(=O)N[C@@H](Cc1c[nH]c2ccccc12)C(=O)N[C@@H](CC(C)C)C(=O)N[C@H](C(=O)N[C@@H](CCCNC(=N)N)C(=O)NCC(=O)N[C@@H](CCCNC(=N)N)C(=O)NCC(=O)O)C(C)C | male CD-1 mouse, plasma | intravenous, 1 mg/kg, single dose | 130 ng·h/mL |
| CC[C@H](C)[C@@H]1NC(=O)[C@@](C)(NC(=O)[C@H](CCCNC(=N)N)NC(=O)[C@H](CC(C)C)NC(=O)[C@]2(C)CCCC=CCCC[C@](C)(NC(C)=O)C(=O)N[C@@H](CC(C)C)C(=O)N[C@@H](CCC(N)=O)C(=O)N2)CCCC=CCCC[C@@](C)(C(=O)N[C@@H](CC(C)C)C(=O)N[C@@H](Cc2ccc3ccccc3c2)C(=O)NCCC(=O)NCCC(N)=O)NC(=O)[C@H](CCCNC(=N)N)NC(=O)[C@H](CCC(N)=O)NC1=O | male BALB/c mouse, plasma | intraperitoneal, 30 mg/kg | 996000 ng·h/mL |
| Cn1c2cc([S+](C)[O-])sc2c2cnn(Cc3cccc(N)c3)c(=O)c21 (centres unmarked) | male BALB/c mouse, plasma | intravenous, 1 mg/kg, single dose | 976 ng·h/mL |
| O=C(O)c1ccc(/C=C2\SC(=S)N(Cc3cccc(C(F)(F)F)c3)C2=O)cc1 | C57BL/6 mouse, blood | intravenous, 5 mg/kg | 5720 ng·h/mL |
| CC[C@H](C)/C=C/C=C/C=C/C(O)=C/C(=O)C(F)(F)Cl | female C57BL/6 mouse, plasma | oral, 25 mg/kg | 9610 ng·h/mL |
| COc1ccc2nc(NC(c3ccc(O)cc3)P(=O)(OC)OC)sc2c1 (centres unmarked) | mouse, plasma | intravenous, 10 mg/kg | 2870 ng·h/mL |
| COc1cc(C2C3=C(COC3=O)N(CCO)c3cc4c(cc32)CCC4)cc(OC)c1OC (centres unmarked) | female C57BL/6 mouse, plasma | intraperitoneal, 50 mg/kg | 2540 ng·h/mL |
| C/C(N)=N/C(=N\S(=O)(=O)c1ccc(C(F)(F)F)cc1)N1C[C@H](c2ccccc2)C(c2ccc(Cl)cc2)=N1 | male C57BL/6 mouse, brain | oral, 10 mg/kg | 385 ng·h/mL |

Some of these lines once more:
| SMILES | test system | conditions | AUC(0-inf) |
| --- | --- | --- | --- |
| N#CCCC1CCN(C(=S)c2ccc(-c3cc(Cl)ccc3Cl)o2)CC1 | male BALB/c mouse, plasma | intravenous, 5 mg/kg | 1250 ng·h/mL |
